Results pooled from the literature.
“And” joins repeats or separate records; there may be more than shown. Numbers after ± are the reported error.

The oral bioavailability of `C/C(N)=N/C(=N\S(=O)(=O)c1ccc(C(F)(F)F)cc1)N1C[C@H](c2ccccc2)C(c2ccc(Cl)cc2)=N1` is reported as 30.4% (Beagle dog, plasma; oral, 18 mg/kg).
`CC[C@H](C)[C@@H]1NC(=O)[C@H](Cc2ccc(O)cc2)NC(=O)CCCSC[C@@H](C(=O)N(CC(=O)N[C@@H](CC(C)C)C(=O)NCC(N)=O)Cc2ccc(F)cc2)NC(=O)[C@H](CC(N)=O)NC(=O)[C@H](CCC(N)=O)NC1=O`: “treatment-emergent adverse events” 50% (human; intranasal and intravenous, 400 µg intranasal and 20 µg intravenous).
`Cc1cc(-c2ccc(C(=O)[C@@H]3CCCC[C@H]3C(=O)Nc3cnn4c3C(=O)NCC4)cc2)[nH]n1` — result for “cumulative recovery of radioactivity”: 85.2% (human, urine and faeces; oral, 200 mg, mean of six subjects; reference: dose).
`CCCCN1C(=O)c2cccc3c(NCCCCN4CCOCC4)ccc(c23)C1=O` — result for “fluorescence quantum yield”: 0.48 (1,4-dioxane).
`CN(O)C(=O)CCC(=O)NCCCN(CCCCN(CCCNC(=O)CCC(=O)N(C)O)C(=O)CCC(=O)N(C)O)C(=O)CCC(=O)N(C)O.[89Zr]` gave an intact complex of 99.6 ± 0.8% (radio-TLC; aqueous buffer; 3 d, pH 7.2, 37 °C, 89Zr-labelled complex, added: CaCl2 10-fold excess).
`CCC1=[N+]2N=C(/C=C/C=C/c3ccc(C(F)(F)F)cc3)C(=O)O[B-]2(c2ccccc2)Oc2cc(N(CC)CC)ccc21` (stereo not drawn) — result for “hydrolysis activation energy”: 24.9 kcal/mol (UV/vis decay; aqueous buffer).
`Cc1ccc(OCC(=O)N(Cc2cccs2)c2ccn[nH]2)cc1` has a remaining compound of 102 (monkey plasma; 750 ng/mL, 0.25 h, 37 °C, unit not given; reference: time zero).
For `CC(C)(O)c1ncc([S@](N)(=O)=NC(=O)Nc2c3c(cc4c2CCC4)CCC3)s1`, “gastrointestinal adverse events” read 17% (healthy human; oral, 10 mg single dose, capsule formulation).
The SUV of `O=C(Nc1cnccc1-c1ccc([18F])nc1)c1ccnc(NC(=O)C2CC2)c1` is reported as 0.186 (PET imaging; FVB/NJ mice, both sexes, brain; intravenous, 15 min post-injection, P-gp inhibited, added: tariquidar 15 mg/kg iv, 2 h before).
`CN1CCC[C@]1(C)/C=C/S(=O)(=O)NC(=O)Nc1c2c(cc3c1CCC3)CC=C2` has an AUC(0-24) of 88 µg·h/mL (human, plasma; oral, 12.5 mg twice daily of parent drug, day 1, metabolite of dosed drug).
`COC(=O)[C@@]1(C(C)C)C=C(C(=O)Nc2cccc(C(=O)Nc3ccc(Nc4nccc(-c5cccnc5)n4)c(C)c3)c2)C(=O)CC1` has a compound remaining of 100% and 93.5% (rat, plasma; 1 µM, 15 min).
With `CN1CCC[C@]1(C)/C=C/S(=O)(=O)NC(=O)Nc1c2c(cc3c1CCC3O)CCC2` (stereo partly drawn) the AUC(0-24) was 1520 µg·h/mL (human, plasma; oral, 100 mg twice daily of parent drug, day 14, metabolite of dosed drug).
`CCCC[C@H](NC(=O)CNC(=O)CNC(=O)[C@H](CCCCNC(=O)[C@H](CC(=O)O)NC(=O)C(C)c1ccc(CC(C)C)cc1)NC(=O)CN1CCN(CC(=O)O)CCN(CC(=O)O)CCN(CC(=O)O)CC1)C(=O)N[C@H]1CC(=O)NCCCC[C@@H](C(N)=O)NC(=O)[C@H](Cc2c[nH]c3ccccc23)NC(=O)[C@H](CCCNC(=N)N)NC(=O)[C@@H](Cc2ccccc2)NC(=O)[C@H](Cc2c[nH]cn2)NC1=O` (stereo partly drawn) [lutetium-177 labelled] has a tumour-to-tissue ratio of 79.5 (C57 mice, tumour; intravenous, 0.037 MBq, 4 h; reference: muscle).
For `OCC1OC(n2cnc3c(NCc4ccc(Br)s4)ncnc32)C(O)C1O` (stereo not drawn), the Tmax was 1 to 2 h (C57BL/6 mice, male, blood; oral, 3 mg/kg).
The AUC(0-t) of `C=C(NC(=O)c1csc(-c2nc3c(cc2O)-c2nc(cs2)C(=O)NC(C(C)O)C(=O)NC(=C(C)OC)c2nc(cs2)C(=O)NC2c4nc(cs4)C(=O)NC(COC(=O)c4c5c6c(cccc6n4O)COC(=O)C(OC4CC(C)(O)C(N(C)C)C(C)O4)C2OC5)c2nc-3cs2)n1)C(N)=O` (stereo not drawn) is reported as 0.325 µg·h/mL (ICR mice, Streptococcus pneumoniae ATCC 49169 infected, immunocompromised, blood; intravenous, 4 mg/kg/day three times daily).
For `CN(C)C(=O)c1cccc(N2Cc3cnn(Cc4ccc(F)cc4)c3C2)c1`, the half-life was 0.45 h (metabolic stability; human, liver microsomes).
With `CCOC(=O)[C@@](CC)(CCCSCCOCCOCCNC(=O)OC(C)(C)C)NC(=O)c1ccc(C2CC2)c(Cc2ccc(F)cc2)n1` the kinetic solubility was < 0.4 µg/mL (aqueous buffer with DMSO).
With `Cc1noc(C)c1Cn1cc(N2C(=O)CN(Cc3cccc(O[C@@H]4O[C@H](C(=O)O)[C@@H](O)[C@H](O)[C@H]4O)c3)C2=O)cn1` the plasma concentration was 105 ng/mL (Sprague-Dawley rat, male; oral, 30 mg/kg of parent drug, 12 h).
With `Cc1nc(N)nc2c1C(=O)N[C@@H](c1ccc(F)cc1-c1cccc(O[11CH3])n1)C2` the SUV was 5.8 ± 0.3 (ex vivo biodistribution; mouse, U87 subcutaneous xenograft, white blood cells; 60 min, vehicle pretreatment baseline).
`C=CC(=O)Nc1cc(Nc2nccc(-c3c[nH]c4ccccc34)n2)c(OC)cc1N(C)CCN(C)C` has a recovery of 93.3% (storage stability; human plasma; 2 h, -80 °C, MQC level).
`C[N+](C)(CCOCCOCCOCCNC(=S)Nc1ccc(C[C@H]2CN(CC(=O)[O-])CCN(CC(=O)[O-])CCN2CC(=O)[O-])cc1)C[c-]1cccc1.[64Cu+2].[Fe+2].c1cc[cH-]c1` has an absorbed dose of 0.47 µSv/MBq (OLINDA, extrapolated from mouse biodistribution, item: urinary bladder wall; adult male human phantom).
The hydrolytic half-life of `C=CS(=O)(=O)c1ccc(OC)c(-c2c[nH]c3ncc(-c4cncc(C(=O)N(C)C)c4)cc23)c1` is reported as > 24 h (HPLC; 50 µM, 37 °C, no lysine, followed to 24 h).
The AUC(0-24) of `CN1CCC[C@]1(C)/C=C/S(=O)(=O)NC(=O)Nc1c2c(cc3c1CC(O)C3)CCC2` (stereo partly drawn) is reported as 17.4 µg·h/mL (human, plasma; oral, 12.5 mg twice daily of parent drug, day 1, metabolite of dosed drug).
`O=C(O)CCCOc1ccc([18F])cc1-c1cc(-c2ccccc2C(F)(F)F)n(-c2ccccc2)n1` gave an absorbed dose of 10.2 µGy/MBq (OLINDA/EXM from mouse data; human adults, thymus).
With `O=C([O-])CN1CCN(CC(=O)[O-])CCN(CC(=O)NC[C@H]2CC[C@H](C(=O)N[C@H](Cc3cnc4ccccc4c3)C(=O)NCCCC[C@H](NC(=O)N[C@@H](CCC(=O)O)C(=O)O)C(=O)O)CC2)CCN(CC(=O)[O-])CC1.[64Cu+2]` the tissue uptake was 29.6 %ID/g (ex vivo gamma counting; 22Rv1 tumour-bearing mice, intestine; intravenous, 0.74 MBq, 6 h post-injection).
`C=CC(=O)Nc1cc(Nc2nccc(-c3cn(C)c4ccccc34)n2)c(OC)cc1N(C)CCNC` has a recovery of 94.5% (storage stability; human dried blood spots; 5 h, on ice, LLOQ level).
`CC(C(=O)O)n1nc(Cn2cc3cc(OCC[18F])c(Cl)cc3n2)c2ccccc2c1=O` (racemic) has a tracer uptake of 0.03 %ID/g (rat, brain; 30 min).
`CCc1cnc(NC(=O)c2cc(S(=O)(=O)N3CCOCC3)ccc2N(C)C2CCCC2)s1`: “Eosinophils differential count” 2.3% (mouse, blood; 10 mg/kg, 3 doses).
`O=C(Nc1cnccc1-c1ccc([18F])cc1)c1ccnc(NC(=O)C2CC2)c1` has an SUV of 0.14 (ex vivo gamma counting; GSK-3β transgenic mice, late-stage, cerebellum; intravenous, 1.26 MBq/animal, 120 min, mean, no P-gp inhibitor).
`COc1ccc2c(c1)CCn1c[n+]3c(c1-2)-c1ccc(OC)cc1CC3` — result for “mean corpuscular haemoglobin”: 16.1 ± 0.43 pg (female NSG mice, blood; 6 mg/kg, day 14, 5 days per week).
For `CC[C@H](C)[C@H](NC(=O)[C@H](CCC(N)=O)NC(=O)[C@@H](NC(=O)[C@@H]1CCCN1[C@@H]1CN(C(=O)[C@H](CCCCN)NC(=O)[C@H](CC(N)=O)NC(=O)[C@@H](NC(=O)[C@@H](NC(=O)[C@H](CCC(N)=O)NC(=O)[C@@H](N)C(C)C)[C@@H](C)CC)[C@@H](C)CC)CC[C@H]1NS(=O)(=O)c1ccc(C)cc1)C(C)C)C(=O)N[C@H](C(=O)N[C@@H](Cc1ccc(O)cc1)C(=O)N[C@@H](CCCCN)C(N)=O)C(C)C`, the beta-sheet content was 39.5% (CD spectroscopy; 20 mM phosphate buffer; 125 µM, 37 °C).
`CCC(C(=O)Nc1ccc(C(N)=O)c(F)c1)n1cc(OC)c(-c2cc(Cl)ccc2-n2cc(C(F)(F)F)nn2)cc1=O` (stereo not drawn): “treatment-emergent adverse events” 13.3% (healthy male humans; 25 mg, ASD vs IR, fasted).
`O=C([O-])CN1CCN(CC(=O)[O-])CCN(CC(CCCc2ccccc2[N+](=O)[O-])N(CC(=O)[O-])CC(=O)[O-])CC1.[90Y+3]` (stereo not drawn): “intact radiolabelled complex” 100% (HPLC; human serum; 72 h, pH 7, 37 °C).
With `N#Cc1cc(NC(=O)C2c3ccccc3C(=O)N(CC(F)(F)F)C2c2ccc[n+]([O-])c2)ccc1F` (stereo not drawn) the maximum AUC was 51.5 µg·h/mL (human, plasma; concentration not given, single-dose cohorts, interim).
`COCC1CN(C2CCN(c3cc(OC)c(Nc4ncc(Br)c(Nc5ccc6c(c5P(C)(C)=O)OCCO6)n4)cc3C)CC2)C1` has an adverse events of 0% (first-in-human trial; human; oral, 240 mg once daily; treatment-related leading to permanent discontinuation).
`CCN(CC)c1ccc2c(c1)O[B-]1(c3ccccc3C#N)OC(=O)C(c3ccccc3)=N[N+]1=C2CC(C)C` (stereo not drawn) — result for “hydrolysis activation energy”: 24.9 kcal/mol (UV/vis decay; aqueous buffer).
The tracer uptake of `[123I]c1ccc2nc(-c3ccc(-n4ccnn4)nc3)cn2c1` is reported as 0.471 %ID/g (male Wistar rat, muscle; intravenous, 4 MBq, 5 min).
`COc1ccc(Nc2nc(Nc3ccc(OCCOCC[18F])cc3)ncc2Br)cc1` gave an uptake ratio of 2.12 (ICR mice, S180 tumour; intravenous, 370 kBq, 5 min; reference: tumour over bone).
For `COc1cc(C=O)cc(OS(=O)(=O)Oc2ccc3c(c2)CC[C@@H]2[C@@H]3CC[C@]3(C)C(=O)CC[C@@H]23)c1OC`, the hydrolysis conversion was 17% (concentration not given, 24 h, pH 4.8).

Repeated from above:
For `OCC1OC(n2cnc3c(NCc4ccc(Br)s4)ncnc32)C(O)C1O` (stereo not drawn), the Tmax was 1 to 2 h (C57BL/6 mice, male, blood; oral, 3 mg/kg).
The AUC(0-t) of `C=C(NC(=O)c1csc(-c2nc3c(cc2O)-c2nc(cs2)C(=O)NC(C(C)O)C(=O)NC(=C(C)OC)c2nc(cs2)C(=O)NC2c4nc(cs4)C(=O)NC(COC(=O)c4c5c6c(cccc6n4O)COC(=O)C(OC4CC(C)(O)C(N(C)C)C(C)O4)C2OC5)c2nc-3cs2)n1)C(N)=O` (stereo not drawn) is reported as 0.325 µg·h/mL (ICR mice, Streptococcus pneumoniae ATCC 49169 infected, immunocompromised, blood; intravenous, 4 mg/kg/day three times daily).
For `CN(C)C(=O)c1cccc(N2Cc3cnn(Cc4ccc(F)cc4)c3C2)c1`, the half-life was 0.45 h (metabolic stability; human, liver microsomes).
With `CCOC(=O)[C@@](CC)(CCCSCCOCCOCCNC(=O)OC(C)(C)C)NC(=O)c1ccc(C2CC2)c(Cc2ccc(F)cc2)n1` the kinetic solubility was < 0.4 µg/mL (aqueous buffer with DMSO).
With `Cc1noc(C)c1Cn1cc(N2C(=O)CN(Cc3cccc(O[C@@H]4O[C@H](C(=O)O)[C@@H](O)[C@H](O)[C@H]4O)c3)C2=O)cn1` the plasma concentration was 105 ng/mL (Sprague-Dawley rat, male; oral, 30 mg/kg of parent drug, 12 h).
With `Cc1nc(N)nc2c1C(=O)N[C@@H](c1ccc(F)cc1-c1cccc(O[11CH3])n1)C2` the SUV was 5.8 ± 0.3 (ex vivo biodistribution; mouse, U87 subcutaneous xenograft, white blood cells; 60 min, vehicle pretreatment baseline).
